Measured values pooled from the literature.
Each line is one published result; not all experiments were run side by side. ± marks the error that the study gave.
Sequence of UniProt Q06520 (whole entry, looked up): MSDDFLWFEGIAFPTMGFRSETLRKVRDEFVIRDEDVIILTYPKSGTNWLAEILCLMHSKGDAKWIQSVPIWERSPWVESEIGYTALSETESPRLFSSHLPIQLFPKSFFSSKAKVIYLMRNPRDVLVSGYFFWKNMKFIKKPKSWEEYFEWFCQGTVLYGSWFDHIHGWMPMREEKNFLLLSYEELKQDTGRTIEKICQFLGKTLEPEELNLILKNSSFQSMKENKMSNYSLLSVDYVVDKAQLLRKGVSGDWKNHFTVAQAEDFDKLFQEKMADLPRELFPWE
Sequence of UniProt P21729 (whole entry, looked up): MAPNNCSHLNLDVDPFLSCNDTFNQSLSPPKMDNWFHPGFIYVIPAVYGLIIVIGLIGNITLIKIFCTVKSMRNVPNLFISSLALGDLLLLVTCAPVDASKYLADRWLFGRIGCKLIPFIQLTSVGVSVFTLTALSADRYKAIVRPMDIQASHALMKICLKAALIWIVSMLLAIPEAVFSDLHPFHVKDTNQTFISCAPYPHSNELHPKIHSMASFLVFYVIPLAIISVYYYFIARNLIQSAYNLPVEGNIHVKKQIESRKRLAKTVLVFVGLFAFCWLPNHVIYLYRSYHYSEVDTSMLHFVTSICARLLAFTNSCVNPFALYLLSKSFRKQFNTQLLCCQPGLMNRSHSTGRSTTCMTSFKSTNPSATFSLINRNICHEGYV

Substance	tested on	test	system	setting	scale	measurement	value
CCCC[C@H](NC(=O)CNC(=O)CNC(=O)c1ccc(NN)nc1)C(=O)N[C@H]1CC(=O)NCCCC[C@@H](C(N)=O)NC(=O)[C@H](Cc2c[nH]c3ccccc23)NC(=O)[C@H](CCCNC(=N)N)NC(=O)[C@@H](Cc2ccccc2)NC(=O)[C@H](Cc2c[nH]cn2)NC1=O [technetium-99m labelled]	–	–	C57 mouse, B16/F1 melanoma-bearing, blood	intravenous, 24 h	–	tissue uptake	0.03 ± 0.01 %ID/g
COC(=O)[C@H](CSSC(C)(C)[C@H](NC(=O)[C@H](CCC(=O)NC[C@H](O)[C@@H](O)[C@H](O)[C@H](O)CO)NC(=O)[C@H](CCC(=O)O)NC(=O)[C@H](CCC(=O)NC[C@H](O)[C@@H](O)[C@H](O)[C@H](O)CO)NC(=O)[C@H](CCC(=O)O)NC(=O)[C@H](CCC(=O)NC[C@H](O)[C@@H](O)[C@H](O)[C@H](O)CO)NC(=O)CC[C@H](NC(=O)c1ccc(NCc2cnc3nc(N)[nH]c(=O)c3n2)cc1)C(=O)O)C(=O)O)NC(=O)CC[C@H](NC(=O)c1ccc(NCc2cnc3nc(N)[nH]c(=N)c3n2)cc1)C(=O)O	–	–	Lewis rat, female, plasma	subcutaneous, 500 nmol/kg	–	AUC(0-last)	1020 nM·h
CCCNC(=O)[C@H](CC(C)C)NC(=O)[C@H](Cc1c[nH]cn1)NC(=O)CNC(=O)[C@@H](NC(=O)[C@H](C)NC(=O)[C@H](Cc1c[nH]c2ccccc12)NC(=O)[C@H](CCC(N)=O)NC(=O)[C@@H](Cc1ccccc1)NC(=O)CCCCCNC(=O)CN1CCN(CC(=O)O)CCN(CC(=O)O)CCN(CC(=O)O)CC1)C(C)C [indium-111 labelled]	Gastrin-releasing peptide receptor (Mus musculus, UniProt P21729)	biodistribution	CF-1 mice, bladder	intravenous, 1 h, unblocked	–	tissue uptake	0.99 ± 0.69 %ID/g
N=C(N)NCCC[C@@H]1NC(=O)[C@H](CCCCNC(=O)CCOCCOCCOCCOCCNC(=O)CC[C@H](NC(=O)CCOCCOCCOCCOCCNC(=O)CC[C@H](NC(=O)CN2CCN(CC(=O)O)CCN(CC(=O)O)CCN(CC(=O)O)CC2)C(=O)NCCOCCOCCOCCOCCC(=O)N[C@@H](CCC(=O)NCCOCCOCCOCCOCCC(=O)NCCCC[C@@H]2NC(=O)[C@@H](Cc3ccccc3)NC(=O)[C@H](CC(=O)O)NC(=O)CNC(=O)[C@H](CCCNC(=N)N)NC2=O)C(=O)NCCOCCOCCOCCOCCC(=O)NCCCC[C@@H]2NC(=O)[C@@H](Cc3ccccc3)NC(=O)[C@H](CC(=O)O)NC(=O)CNC(=O)[C@H](CCCNC(=N)N)NC2=O)C(=O)NCCOCCOCCOCCOCCC(=O)NCCCC[C@@H]2NC(=O)[C@@H](Cc3ccccc3)NC(=O)[C@H](CC(=O)O)NC(=O)CNC(=O)[C@H](CCCNC(=N)N)NC2=O)NC(=O)[C@@H](Cc2ccccc2)NC(=O)[C@H](CC(=O)O)NC(=O)CNC1=O [indium-111 labelled]	–	–	athymic nude mice, female, U-87 MG glioma xenograft, tumour and kidney	intravenous, 72 h	baseline: tumour over kidney	tumour to tissue ratio	1 ± 0.21
SULT2A1 (Homo sapiens, UniProt Q06520)	C[C@]12CC[C@H](O)CC1CCC1C2[C@H](O)C(=O)[C@]2(C)[C@@H](c3ccc(=O)oc3)CC[C@]12O	steady-state kinetics	–	pH 7.4, 37 °C, sulfation by SULT2A1, not purified	–	Vmax/Km	75.9 µL/min/mg
COc1cccc2c1C(=O)c1c(O)c3c(c(O)c1C2=O)C[C@@](O)(C(=O)CO)C[C@@H]3O[C@H]1C[C@H](NC(=N)CCCSSC[C@@H]2NC(=O)[C@H](CCCNC(=N)N)NC(=O)[C@H](Cc3c[nH]c4ccccc34)NC(=O)[C@H](CCCNC(=N)N)NC(=O)[C@H](Cc3c[nH]c4ccccc34)NC(=O)[C@H](CCCCNC(=O)CCN)NC(=O)[C@H](Cc3c[nH]c4ccccc34)NC(=O)[C@H](CCCNC(=N)N)NC(=O)[C@H](Cc3c[nH]c4ccccc34)NC(=O)[C@H](CCCNC(=N)N)NC2=O)[C@H](O)[C@H](C)O1	C2C12 cells	H2DCFDA flow cytometry	–	0.5 mM, 72 h	baseline: control	ROS level	1.05 fold
N=C(N)NCCC[C@@H]1NC(=O)[C@H](CCCCNC(=O)CCOCCOCCOCCOCCNC(=O)CN2CCN(CC(=O)O)CCN(CC(=O)O)CCN(CC(=O)O)CC2)NC(=O)[C@@H](Cc2ccccc2)NC(=O)[C@H](CC(=O)O)NC(=O)CNC1=O [indium-111 labelled]	–	–	athymic nude mice, female, U-87 MG glioma xenograft, tumour and blood	intravenous, 1 h	baseline: tumour over blood	tumour to tissue ratio	4.04 ± 0.7
CC(C)C[C@H](NC(=O)[C@H](Cc1c[nH]cn1)NC(=O)[C@H](Cc1ccc(O)cc1)NC(=O)[C@H](CCCNC(=N)N)NC(=O)[C@H](Cc1ccc(O)cc1)NC(=O)[C@H](CCCCN)NC(=O)[C@H](CCCCN)NC(=O)c1ccc(CN/C(=N/C(=O)c2ccccc2)Nc2ccc(Br)cc2)cc1)C(=O)N[C@@H](CCCCN)C(=O)N1CCC[C@H]1C(=O)N[C@@H](Cc1ccccc1)C(=O)NCCCC[C@H](NC(=O)[C@H](Cc1ccccc1)NC(=O)[C@@H]1CCCN1C(=O)[C@H](CCCCN)NC(=O)[C@H](CC(C)C)NC(=O)[C@H](Cc1c[nH]cn1)NC(=O)[C@H](Cc1ccc(O)cc1)NC(=O)[C@H](CCCNC(=N)N)NC(=O)[C@H](Cc1ccc(O)cc1)NC(=O)[C@H](CCCCN)NC(=O)[C@H](CCCCN)NC(=O)c1ccc(CN/C(=N/C(=O)c2ccccc2)Nc2ccc(Br)cc2)cc1)C(N)=O	Swiss mouse peritoneal macrophages	MTT	–	–	–	CC50	2000 ± 0.11 µM
N=C(N)NCCC[C@@H]1NC(=O)[C@H](CCCCNC(=O)CNC(=O)CNC(=O)CNC(=O)CC[C@H](NC(=O)CCOCCOCCOCCOCCNC(=O)CC[C@H](NC(=O)CN2CCN(CC(=O)O)CCN(CC(=O)O)CCN(CC(=O)O)CC2)C(=O)NCCOCCOCCOCCOCCC(=O)N[C@@H](CCC(=O)NCC(=O)NCC(=O)NCC(=O)NCCCC[C@@H]2NC(=O)[C@@H](Cc3ccccc3)NC(=O)[C@H](CC(=O)O)NC(=O)CNC(=O)[C@H](CCCNC(=N)N)NC2=O)C(=O)NCC(=O)NCC(=O)NCC(=O)NCCCC[C@@H]2NC(=O)[C@@H](Cc3ccccc3)NC(=O)[C@H](CC(=O)O)NC(=O)CNC(=O)[C@H](CCCNC(=N)N)NC2=O)C(=O)NCC(=O)NCC(=O)NCC(=O)NCCCC[C@@H]2NC(=O)[C@@H](Cc3ccccc3)NC(=O)[C@H](CC(=O)O)NC(=O)CNC(=O)[C@H](CCCNC(=N)N)NC2=O)NC(=O)[C@@H](Cc2ccccc2)NC(=O)[C@H](CC(=O)O)NC(=O)CNC1=O [indium-111 labelled]	–	–	female athymic nude mice, intestine	intravenous, 3 µCi, 4 h, U-87 MG glioma xenograft	–	tissue uptake	5.18 ± 1.39 %ID/g
CSCC[C@H](NC(=O)[C@H](CC(C)C)NC(=O)[C@H](Cc1c[nH]cn1)NC(=O)CNC(=O)[C@@H](NC(=O)[C@H](C)NC(=O)[C@H](Cc1c[nH]c2ccccc12)NC(=O)[C@H](CCC(N)=O)NC(=O)CCCCCNC(=O)CNC(=O)CNC(=O)CNC(=O)CSC(C)=O)C(C)C)C(N)=O [technetium-99m labelled]	–	–	Swiss mouse, liver	intravenous, 18.5 MBq, 5 min	–	tissue uptake	10.1 ± 2.18 %ID/g

Some of these lines once more:
Substance	tested on	test	system	setting	scale	measurement	value
SULT2A1 (Homo sapiens, UniProt Q06520)	C[C@]12CC[C@H](O)CC1CCC1C2[C@H](O)C(=O)[C@]2(C)[C@@H](c3ccc(=O)oc3)CC[C@]12O	steady-state kinetics	–	pH 7.4, 37 °C, sulfation by SULT2A1, not purified	–	Vmax/Km	75.9 µL/min/mg
